Assay results pooled from the literature.
Numbered parts are unrelated; each lists some results of a single study. Changes are numbered by the printed parent chain.

Block 1 — target: CCND1, cyclin fold, Cln2 fusion (human); technique: yeast growth competition, sequencing; medium: yeast; setting: strong parent motif; relative to: not given; direction: higher = stronger binding
Starting sequence: SCAPER docking peptide (human); SNARRSLNFGGST
Change | normalised enrichment score
SNARRSLDFGGST [N8D] | 1.54
SNARRSLIFGGST [N8I] | 1.11
SPARRSLNFGGST [N2P] | 1.17
SNAGRSLNFGGST [R4G] | -0.0532
SNARRSLNFGGSW [T13W] | 0.414
SLARRSLNFGGST [N2L] | 0.361
SNARRSLQFGGST [N8Q] | 0.369
SNARRSLNFEGST [G10E] | 0.81
SNARRSLLFGGST [N8L] | -0.0844

Block 2 — technique: DHFR PCA, deep sequencing; medium: yeast; with: (+)-ABA 1.4 µM; relative to: wild-type fitted maximum; direction: higher = stronger binding
Target: ABI1, truncated, D143A, DHFR fusion (Arabidopsis thaliana)
Setting: methotrexate growth selection, single substitutions
Starting sequence: PYL1, truncated, DHFR fusion (Arabidopsis thaliana); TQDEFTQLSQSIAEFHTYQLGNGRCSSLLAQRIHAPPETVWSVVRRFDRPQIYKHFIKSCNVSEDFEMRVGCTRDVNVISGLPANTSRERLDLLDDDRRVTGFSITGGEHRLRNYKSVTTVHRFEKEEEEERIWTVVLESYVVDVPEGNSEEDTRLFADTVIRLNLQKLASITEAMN
Change | relative binding score [%]
L20A | 68.1
D95R | -3.06
S42Y | -4.3
D159T | -9.73
E109G | 14.3
S150I | -19.2
K168G | 16.9
F47G | 7.79
F124T | 9.64

Block 3 — technique: universal PBM; form: double-stranded DNA, one strand shown; medium: in vitro; tested at: 600 nM; direction: higher = stronger binding
Target: Sal-like protein 4, full length isoform A (SALL4, Homo sapiens, UniProt Q9UJQ4, residues 1-1053)
UniProt Q9UJQ4, sequence (whole entry, looked up): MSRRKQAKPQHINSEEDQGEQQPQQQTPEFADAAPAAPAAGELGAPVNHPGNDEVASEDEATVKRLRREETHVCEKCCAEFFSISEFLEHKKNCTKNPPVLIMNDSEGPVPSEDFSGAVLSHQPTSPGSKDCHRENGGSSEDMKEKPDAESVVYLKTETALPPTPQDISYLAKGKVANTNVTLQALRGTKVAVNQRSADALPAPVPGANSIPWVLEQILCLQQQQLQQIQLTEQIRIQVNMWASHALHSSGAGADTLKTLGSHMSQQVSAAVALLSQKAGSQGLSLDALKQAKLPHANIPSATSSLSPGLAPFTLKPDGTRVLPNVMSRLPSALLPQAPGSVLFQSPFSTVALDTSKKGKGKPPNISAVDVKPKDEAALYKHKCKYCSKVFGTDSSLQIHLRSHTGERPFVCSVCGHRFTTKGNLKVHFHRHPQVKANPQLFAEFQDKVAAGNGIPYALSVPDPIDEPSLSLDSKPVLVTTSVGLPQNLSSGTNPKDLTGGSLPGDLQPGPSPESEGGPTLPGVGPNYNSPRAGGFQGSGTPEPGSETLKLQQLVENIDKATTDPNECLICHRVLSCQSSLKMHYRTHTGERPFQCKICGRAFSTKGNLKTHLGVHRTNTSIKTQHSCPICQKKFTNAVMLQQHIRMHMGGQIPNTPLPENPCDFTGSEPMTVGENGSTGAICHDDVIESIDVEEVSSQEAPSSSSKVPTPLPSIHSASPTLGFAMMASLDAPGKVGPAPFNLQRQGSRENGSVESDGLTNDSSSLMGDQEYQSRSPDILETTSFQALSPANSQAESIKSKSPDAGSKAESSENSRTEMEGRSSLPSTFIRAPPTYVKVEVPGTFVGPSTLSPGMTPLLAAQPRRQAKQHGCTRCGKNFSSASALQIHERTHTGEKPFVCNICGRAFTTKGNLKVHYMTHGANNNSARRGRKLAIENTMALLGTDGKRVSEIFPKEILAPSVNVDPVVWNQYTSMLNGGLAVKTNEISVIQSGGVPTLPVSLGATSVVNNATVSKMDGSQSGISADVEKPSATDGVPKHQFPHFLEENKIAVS
Setting: 8-mer, flanks averaged, mean of replicates
Sequence | E-score
ATATTTCG | 0.425
ATACTGGA | 0.209
CTAACCCC | -0.244
ATTGTCGG | -0.0418
GACTTCTA | -0.0067
GGGCGGGA | -0.131
ACCGAGCT | -0.188

Single results of other studies
Molecule | target | test | test system | setting | scale | measurement | result
PhoQ, residues 284 288 289 292 302 303 SASVAL | PhoP, residues 12 14 15 18 19 QWHVF (Escherichia coli, UniProt P23836) | Sort-seq, item: YFP reporter | E. coli | PhoQ-PhoP variant library, with: 10 µM Mg2+ | relative to: high Mg2+ state, higher = stronger signaling | fold induction | 4.38

Excerpt of the above (block 1):
Change | normalised enrichment score
SLARRSLNFGGST [N2L] | 0.361
SNARRSLQFGGST [N8Q] | 0.369
